Results of several laboratories.
Each line is one published result; not all experiments were run side by side.
Cell line: SW-620

C#C[C@@]1(O)[C@@H](CO)O[C@@H](n2ccc3c(N)ncnc32)[C@@H]1O — TGI (SRB; NCI-60 screen): 12.7 µM
O=P1(C2CCCCC2)CCCCC1 — reduction of cell number (trypan blue; IC50, 72 h; baseline: untreated): 56 to 60%
CN1CCN(c2ccc3[nH]c(-c4ccc5[nH]c(-c6ccc(C(F)(F)F)cc6)nc5c4)nc3c2)CC1 — growth percent (SRB; 10 µM, 48 h): 1.32%
O=C(Nc1nnc2n3c(nc(-c4ccc(Cl)cc4)c1-2)SCC3=O)c1ccccc1 — cell growth (SRB; 10 µM, NCI60 single-dose screen, colon cancer; baseline: untreated): 101%
O=C1NC(c2ccccc2)(c2ccccc2)C(=O)N1Cc1cn(-c2c3ccccc3nc3ccccc23)nn1 — growth percentage (NCI60 single-dose screen; 10 µM): 85.6%
C#C[C@@]1(O)[C@@H](CO)O[C@@H](n2cc(F)c3c(N)ncnc32)[C@@H]1O — TGI (SRB; NCI-60 screen): 2.9 µM
Nc1ncnc2c1ncn2C1CCCC1 — decrease of IP5 level (100 µM, 96 h; baseline: DMSO): ~10 fold
Cc1cc(C)n(C(=S)[S][Au][PH](CCCCCC[PH]([Au][S]C(=S)n2nc(C)cc2C)(c2ccccc2)c2ccccc2)(c2ccccc2)c2ccccc2)n1 — log10 TGI (cell growth, NCI-60 screen; colon cancer): > -4
Cn1cncc1C1=CN(c2ncnc3[nH]cnc23)CCS1 — GI50 (colon cancer): 6.5 µM
CCCN1CCN(c2ccc3[nH]c(-c4ccc5[nH]c(-c6ccc(OCC)c(OCC)c6)nc5c4)nc3c2)CC1 — growth percent (SRB; 10 µM, 48 h): -65.9%
Cc1cc(=O)[nH]c(=O)n1Cc1cn(-c2cc3ccccc3oc2=O)nn1 — growth percentage (NCI60 single-dose screen; 10 µM): 99.3%
COc1cnc2cccc(N3CCc4c(cc(Cn5ccnc5C)cc4-c4cn(C)nc4C(F)(F)F)C3=O)c2c1 — EC50 (cell growth, inhibitor; 120 h): 0.0272 µM
COc1cccc2c1C(=O)c1c(O)c3c(c(O)c1C2=O)C[C@@](O)(C(=O)CO)C[C@@H]3O[C@H]1C[C@H](N)[C@H](O)[C@H](C)O1 — selectivity index (MTT; 72 h; baseline: IC50 HaCaT over IC50 SW-620): 1
Cc1cc(-c2ccccc2)n(-c2nc(-c3ccc(Cl)cc3)c3c(NC(=O)c4ccccc4)nnc-3[nH]2)n1 — cell growth (SRB; 10 µM, NCI60 single-dose screen, colon cancer; baseline: untreated): 101%
CCCCN1CCN(c2ccc3[nH]c(-c4ccc5[nH]c(-c6ccc(C(F)(F)F)cc6)nc5c4)nc3c2)CC1 — growth percent (SRB; 10 µM, 48 h): -76.9%
O=C1NC(=NCc2cccs2)S/C1=C\c1ccc2ncccc2c1 — IC50 (MTS; colon cancer): > 10 µM
CCCN1CCN(c2ccc3[nH]c(-c4ccc5[nH]c(-c6cc(OC)c(OC)c(OC)c6)nc5c4)nc3c2)CC1 — growth percent (SRB; 10 µM, 48 h): 75.7%
Cc1n[nH]c2nc(-c3ccc(Cl)cc3)c3c(NC(=O)c4ccccc4)nnc-3n12 — cell growth (SRB; 10 µM, NCI60 single-dose screen, colon cancer; baseline: untreated): 106%

For quick reference, copied from above:
O=C1NC(c2ccccc2)(c2ccccc2)C(=O)N1Cc1cn(-c2c3ccccc3nc3ccccc23)nn1 — growth percentage (NCI60 single-dose screen; 10 µM): 85.6%
CCCN1CCN(c2ccc3[nH]c(-c4ccc5[nH]c(-c6cc(OC)c(OC)c(OC)c6)nc5c4)nc3c2)CC1 — growth percent (SRB; 10 µM, 48 h): 75.7%
CN1CCN(c2ccc3[nH]c(-c4ccc5[nH]c(-c6ccc(C(F)(F)F)cc6)nc5c4)nc3c2)CC1 — growth percent (SRB; 10 µM, 48 h): 1.32%
